Published values collected from several papers.
Lines come from different studies, so protocols differ. Several values in a cell are separate wells, animals, samples, runs or records.

Cn1c(=O)oc2ccc(-c3ccc(CC(C#N)NC(=O)C4CNCCCO4)c(F)c3)cc21 (stereo not drawn)
share of subjects with TEAE (refers to: white blood cells in urine; human volunteers; 80 mg single dose, fasted): 0%

CC12CC(c3ccc(S(C)(=O)=O)cc3)C3=C4CCC(O)C=C4CCC3C1CCC2(O)C(F)(F)C(F)(F)F (stereo not drawn)
share of total radioactivity AUC (human, plasma; oral, 5 mg, mass balance study): 5 to 7% and 5.2 to 6.6%

COc1cc(N(C)CCN(C)C)c(NC(=O)CCSCC(NC(C)=O)C(=O)O)cc1Nc1nccc(-c2cn(C3CC3)c3ccccc23)n1 (stereo not drawn)
share of radioactivity (radio-HPLC, co-eluting peaks pooled; human, feces; dose not given, 0 to 240 h, sample holds 81.99% dose; baseline: sample radioactivity): 2.49%

O=C(O)[C@H]1O[C@@H](O[C@H](C[C@H]2c3c(F)cccc3-c3cncn32)[C@H]2CC[C@H](O)CC2)[C@H](O)[C@@H](O)[C@@H]1O
share of total radioactivity in plasma (human, plasma; oral, 200 mg, 0 to 48 h pooled, [14C]-navoximod dosed): 57.5%

C=CC(=O)Nc1cc(Nc2nccc(-c3cn(C4CC4)c4ccccc34)n2)c(OC)cc1NC
share of radioactivity (radio-HPLC; human male, feces; oral, 110 mg, 0 to 48 h, sample holds 45.32% dose; baseline: sample radioactivity): 0.74%

CC[C@H](C)[C@H](NC(=O)[C@H](CC(C)C)NC(=O)[C@H](Cc1c[nH]c2ccccc12)NC(=O)[C@H](C)NC(=O)[C@@H](NC(=O)[C@H](Cc1ccccc1)NC(=O)[C@H](CC(=O)O)NC(=O)[C@H](CCCNC(=N)N)NC(=O)[C@H](C)NC(=O)[C@H](C)NC(=O)[C@H](CC(C)C)NC(=O)[C@H](C)NC(=O)[C@H](CC(=O)O)NC(=O)[C@H](CC(C)C)NC(=O)[C@@H](NC(=O)[C@@H](NC(=O)[C@H](C)NC(=O)[C@H](CC(C)C)NC(=O)[C@H](CCC(=O)O)NC(=O)[C@H](CO)NC(=O)[C@H](CO)NC(=O)[C@H](Cc1ccccc1)NC(=O)[C@@H](NC(=O)CNC(=O)[C@H](CCC(=O)O)NC(=O)CNC(=O)[C@@H](N)Cc1c[nH]cn1)[C@@H](C)O)[C@@H](C)O)[C@@H](C)CC)[C@@H](C)CC)C(=O)N[C@@H](C)C(=O)N[C@H](C(=O)N[C@@H](CCCCN)C(=O)N[C@H](C(=O)N[C@H](C(=O)N[C@@H](CC(=O)O)C(=O)N[C@@H](CCCCN)C(=O)N[C@@H](CCCCN)C(=O)O)[C@@H](C)O)[C@@H](C)CC)[C@@H](C)O
share of total exposure (healthy human subjects, plasma; intravenous infusion, 1 mg glepaglutide; baseline: sum of parent and metabolites): ~2%

CCc1nc(C(N)=O)c(Nc2ccc(N3CCC(N4CCNCC4)CC3)c(OC)c2)nc1NC1CCOCC1
share of radioactivity (metabolite profiling; human, advanced solid tumours, urine; oral, 120 mg of [14C]-gilteritinib): 0.4 to 2.1%

CCc1cc(Nc2nc(-c3ccc(-n4cnc(C)c4)c(F)c3)cs2)c(C)cc1C(=O)O
share of drug-related material (human, plasma; oral, dose not given): > 10%

C=CC(=O)Nc1cc(Nc2nccc(-c3cn(C4CC4)c4ccccc34)n2)c(OC)cc1N(C)CCNC
share of radioactivity (radio-HPLC; human male, feces; oral, 110 mg, 48 to 96 h, sample holds 20.06% dose; baseline: sample radioactivity): 17.1%

CC[C@H](C)[C@H](NC(=O)[C@H](CC(C)C)NC(=O)[C@H](Cc1c[nH]c2ccccc12)NC(=O)[C@H](C)NC(=O)[C@@H](NC(=O)[C@H](Cc1ccccc1)NC(=O)[C@H](CC(=O)O)NC(=O)[C@H](CCCNC(=N)N)NC(=O)[C@H](C)NC(=O)[C@H](C)NC(=O)[C@H](CC(C)C)NC(=O)[C@H](C)NC(=O)[C@H](CC(=O)O)NC(=O)[C@H](CC(C)C)NC(=O)[C@@H](NC(=O)[C@@H](NC(=O)[C@H](C)NC(=O)[C@H](CC(C)C)NC(=O)[C@H](CCC(=O)O)NC(=O)[C@H](CO)NC(=O)[C@H](CO)NC(=O)[C@H](Cc1ccccc1)NC(=O)[C@@H](NC(=O)CNC(=O)[C@H](CCC(=O)O)NC(=O)CNC(=O)[C@@H](N)Cc1c[nH]cn1)[C@@H](C)O)[C@@H](C)O)[C@@H](C)CC)[C@@H](C)CC)C(=O)N[C@@H](C)C(=O)N[C@H](C(=O)N[C@@H](CCCCN)C(=O)N[C@H](C(=O)N[C@H](C(=O)N[C@@H](CC(=O)O)C(=O)N[C@@H](CCCCN)C(=O)O)[C@@H](C)O)[C@@H](C)CC)[C@@H](C)O
share of total exposure (healthy human subjects, plasma; intravenous infusion, 1 mg glepaglutide; baseline: sum of parent and metabolites): ~7%

O=C(O)C1OC(OC2CCC(C(O)CC3c4c(F)cccc4-c4cncn43)CC2)C(O)C(O)C1O (stereo not drawn)
share of total radioactivity in plasma (human, plasma; oral, 200 mg, 0 to 48 h pooled, [14C]-navoximod dosed): 3.14%

CNc1cc(OC)c(Nc2nccc(-c3cn(C4CC4)c4ccccc34)n2)cc1NC(=O)CCSCC(N)C(=O)O (stereo not drawn)
share of radioactivity (radio-HPLC, co-eluting peaks pooled; human, feces; dose not given, 0 to 240 h, sample holds 81.99% dose; baseline: sample radioactivity): 8.24%
